Results from different studies.
Compare with care: the assays were run in different laboratories. Numbers after ± are the reported error.

`N=C(N)NCCC[C@@H]1NC(=O)[C@H](Cc2c[nH]c3ccccc23)NC(=O)[C@@H](CC2CCCCC2)NC(=O)[C@@H]2CCCN2C(=O)[C@@H](NC(=O)CCc2ccccc2)CCCNC1=O` — result for “apparent central volume (V1/F)”: 0.18 µg/(ng/g) (C57BL/6J mice, brain; oral, 1 mg/kg, two-compartment model).
The clearance of `CCn1cc(-c2cc(Cn3ccnc3)cc3c2CCN([C@H](c2cc(OC)ccn2)C2CC2)C3=O)c(C(F)(F)F)n1` is reported as under 25% (CD-1 male mice, plasma; intravenous, 3 mg/kg; baseline: hepatic blood flow).
For `[11CH3]c1ccc2nc(C3CCC3)n(-c3ccc4[nH]ncc4c3)c2n1`, the absorbed dose was 3.2 µSv/MBq (extrapolated from mouse biodistribution; standard human, osteogenic cells).
`CC(C)CCCC(C)CCCC(C)CCO[C@@H]1O[C@H](CO)[C@@H](O[C@H]2O[C@H](CO)[C@@H](O)[C@H](O)[C@H]2O)[C@H](O)[C@H]1O` (some centres unmarked) gave an induction time of 25.6 s (dynamic surface tension; 0.0145 mmol/L).
For `NCCCC(=O)OCC(=O)c1c(F)cc(O)cc1F.O=C(O)C(F)(F)F`, the quantum yield was 0.02 (photolysis, item: rearranged acid appearance; aqueous HEPES buffer with LiClO4; pH 8.2).
`CC(=O)[CH](C(C)=O)[Pt-2]1([S+](C)C)[O]C(C)=CC(C)=[O+]1` (centres unmarked) has a fecal excretion of 2.5% (item: platinum; rat, feces; 24 h; baseline: dose).
`CC(C)c1cnc(-c2cc(Cl)ccc2F)cc1Nc1ccncc1C(=O)NC(CO)CO`: “patients with any TRAE” 19% (human patients; oral, dose not given, worst grade 2).
With `CCCC[C@H](NC(=O)CNC(=O)CNC(=O)CN1CCN(CC(=O)O)CCN(CC(=O)O)CCN(CC(=O)O)CC1)C(=O)N[C@H]1CC(=O)NCCCC[C@@H](C(N)=O)NC(=O)[C@H](Cc2c[nH]c3ccccc23)NC(=O)[C@H](CCCNC(=N)N)NC(=O)[C@@H](Cc2ccccc2)NC(=O)[C@H](Cc2c[nH]cn2)NC1=O` [copper-64 labelled] the uptake ratio was 262 (female C57 mouse, B16/F1 melanoma; intravenous, 0.037 MBq, 4 h; baseline: tumour over muscle).
For `C=C(c1cc(F)c(C(=O)O)c(F)c1)c1cc2c(cc1C)C(C)(C)CCC2(C)C`, the blood triglycerides was 181 ± 12.2 mg/dL (Sprague-Dawley rat, male; oral, 100 mg/kg, 12 h, sesame oil vehicle).
`CCCC(CCC)NC(=O)c1ccc(OC2OC(C(=O)O)C(O)C(O)C2O)c(O)c1` (centres unmarked) has a Cmax ratio of 1.33 (female Sprague-Dawley rats, plasma; oral, 50 mg/kg of parent drug; baseline: 50 over 20 mg/kg dose).
Under “fluorescence quantum yield”, `COc1ccc2cc(-c3ccc(-c4ccc(C)cn4)nc3)oc2c1` is recorded as 0.7 (CHCl3; added: quinine bisulfate reference).
`COc1cc(NC(C)=O)c2c(c1O)-c1c(OC)c(OC)cc3c1C(C2)N(C)CC3` (centres unmarked) has a remaining compound of 105 ± 3.8% (rat heart homogenate; 100 µg/mL, time not given, three freeze-thaw cycles).
For `NC[C@@H](C(=O)Nc1ccc(-c2cn[nH]c2)cc1)c1ccccc1`, “conjunctival redness score” read 1 (OECD 405; New Zealand White rabbit; topical, 0.1 %, 49 h, day 3; direction not given).
`Cc1ccccc1/N=N/c1ccc(/N=N/c2c(O)ccc3ccccc23)c(C)c1` gave a measured concentration of 5.26 µg/L (extracted rat blood QC samples; 5.0 µg/L, 2 h, room temperature, short-term stability).
For `CC(C)C[C@@H](NC(=O)[C@H](NC(=O)[C@H]1CCCN1)[C@H](C)O)C(=O)N[C@H](Cc1c[nH]cn1)C(=O)N[C@@H](C(=O)N[C@H](Cc1c[nH]cn1)C(=O)N[C@H](CC(N)=O)C(=O)N[C@H](CCCNC(=N)N)C(=O)N[C@H](CCCNC(=N)N)C(=O)N[C@H](CCCNC(=N)N)C(=O)N[C@H](CCCNC(=N)N)C(=O)N[C@H](CCCNC(=N)N)C(N)=O)[C@H](C)O`, the half-life was 77 h (beagle dog, plasma; oral, 50 mg/kg, single dose).
`CC(C)[C@H](NC(=O)CNC(=O)[C@H](CCC(N)=O)NC(=O)[C@H](C)N)C(=O)O` gave a half-life of 0.14 h (LC-MS/MS; human, plasma; intravenous, 20 mg/kg three times daily, day 2, first dose, geometric mean).
`Cc1ccc(-c2ccc(-c3cc4sccc4o3)cn2)nc1` — result for “emission shift on zinc binding”: 4010 cm⁻¹ (acetonitrile; concentration not given, added: Zn(ClO4)2, saturating; baseline: zinc-free ligand).
Under “treatment-emergent adverse event incidence”, `Cn1c(=O)oc2ccc(-c3ccc(CC(C#N)NC(=O)C4CNCCCO4)c(F)c3)cc21` (centres unmarked) is recorded as 3.7% (item: monocyte count increased; human volunteers; oral, dose not given).
For `C=C(C)C(=O)NCCCCCC(=O)N[C@@H](Cc1ccccc1)C(=O)N[C@@H](CCCCN)C(=O)N[C@@H](Cc1ccccc1)C(=O)N[C@@H](CC(C)C)C(=O)NCCCCCC(=O)N[C@H](CCCCN)C(=O)N[C@H](CCCCN)C(=O)N[C@H](CCCCN)C(=O)N[C@H](CCCCN)C(=O)N[C@H](CCCCN)C(=O)N[C@H](CCCCN)C(=O)N[C@H](CCCCN)C(=O)N[C@H](CCCCN)C(=O)N[C@H](CCCCN)C(=O)N[C@H](CCCCN)C(N)=O`, “time intact peptide detected” read at least 4 h (MALDI-TOF MS; mouse serum; 37 °C).
`C=CC(=O)Nc1cccc(-c2cnc3[nH]cc(C(=O)NC(C)(C)C)c3n2)c1`: “white blood cells and haemoglobin” “no effect” (mouse; ip, dose not given, 14 days; baseline: vehicle).
For `C[C@H]1C[C@@H](Oc2cccc(F)n2)CCN1Cc1cnc(N[11C](C)=O)s1`, “plasma free fraction” read 8.38 ± 0.17% (ultrafiltration; rhesus monkey, plasma; pre-blocked condition).
For `Nc1ncnc2c1nc(-n1nnc3c1CCC1C(CO)C1CC3)n2C1OC(CO)C(O)C1O` (mixture of isomers), the brightness was 0.13 M⁻¹ cm⁻¹ (methanol).
With `CC(C)[C@H](NC(=O)[C@@H]1CCCN1C(=O)[C@H](CCCNC(=N)N)NC(=O)[C@H](CS)NC(=O)[C@H](Cc1c[nH]c2ccccc12)NC(=O)[C@H](CCCNC(=N)N)NC(=O)[C@@H](Cc1ccccc1)NC(=O)[C@H](Cc1c[nH]cn1)NC(=O)[C@H](CCC(=O)O)NC(=O)[C@H](CS)NC(=O)[C@H](CS)NC(=O)CNC(=O)[C@@H]1CC(=O)N[C@@H](CCCNC(=N)N)C(=O)NCC(=O)N[C@@H](CC(=O)O)C(=O)N[C@H](Cc2ccc(O)cc2)C(=O)N1)C(N)=O` [technetium-99m labelled] the tissue uptake was 1.67 ± 0.71 %ID/g (C57 mouse, female, B16/F1 melanoma, lung; intravenous, 0.037 MBq, 2 h).
`Cc1[nH]c(/C=C2\C(=O)Nc3ccc(F)cc32)c(C)c1NC(=O)CCN1CCN(C)CC1` gave an accuracy deviation of 1.96% (dog plasma; 40 ng/mL nominal, three freeze-thaw cycles at -20 °C).
`CC(C)CCN(c1nc(C#N)nc(NC2COC2)n1)C(C)c1ccc(F)cc1` (centres unmarked) gave a plasma concentration of 4.7 ng/mL (female CD-1 mice; intraperitoneal, 10 mg/kg, 4 h).
Under “volume of distribution”, `COC(=O)c1ccc(-c2cn(Cc3cc(Cl)ccc3O[11CH3])nn2)cc1` is recorded as 0.455 mL/cm³ (PET, Logan plot; rhesus monkey, hippocampus; dose not given, 40 min).
With `O=C(NCCCN(CCCCN(CCCNC(=O)c1cccc(=O)n1[O-])C(=O)c1cccc(=O)n1[O-])C(=O)c1cccc(=O)n1[O-])c1cccc(=O)n1[O-].[89Zr+4]` the intact complex was 94.5 ± 4.1% (radio-TLC; PBS; 7 d, pH 7.4, 37 °C, added: Gd^3+ 10-fold excess).
`CC1(C)C(=CC=C(C=CC2=[N+](CCC[N+](C)(C)C)c3ccc(S(=O)(=O)[O-])cc3C2(C)C)Oc2ccc(CCC(=O)[O-])cc2)N(CCC[N+](C)(C)C)c2ccc(S(=O)(=O)[O-])cc21` gave a quantum yield of 19.4% (100% serum; pH 7.4).
The fluorescence brightness of `CCCCN1C(=O)c2cccc3c(NCCCCN4CCOCC4)ccc(c23)C1=O` is reported as 4080 M⁻¹ cm⁻¹ (aqueous medium; pH 6).
The clearance of `Oc1cc(F)ccc1Oc1ccccc1` is reported as 20 L/h/kg (CD-1 mice, plasma; subcutaneous, 100 mg/kg).
With `CC[C@H](C)[C@H](NC(=O)[C@H](CC(C)C)NC(=O)[C@H](Cc1c[nH]c2ccccc12)NC(=O)[C@H](C)NC(=O)[C@@H](NC(=O)[C@H](Cc1ccccc1)NC(=O)[C@H](CC(=O)O)NC(=O)[C@H](CCCNC(=N)N)NC(=O)[C@H](C)NC(=O)[C@H](C)NC(=O)[C@H](CC(C)C)NC(=O)[C@H](C)NC(=O)[C@H](CC(=O)O)NC(=O)[C@H](CC(C)C)NC(=O)[C@@H](NC(=O)[C@@H](NC(=O)[C@H](C)NC(=O)[C@H](CC(C)C)NC(=O)[C@H](CCC(=O)O)NC(=O)[C@H](CO)NC(=O)[C@H](CO)NC(=O)[C@H](Cc1ccccc1)NC(=O)[C@@H](NC(=O)CNC(=O)[C@H](CCC(=O)O)NC(=O)CNC(=O)[C@@H](N)Cc1c[nH]cn1)[C@@H](C)O)[C@@H](C)O)[C@@H](C)CC)[C@@H](C)CC)C(=O)N[C@@H](C)C(=O)N[C@H](C(=O)N[C@@H](CCCCN)C(=O)N[C@H](C(=O)N[C@H](C(=O)N[C@@H](CC(=O)O)C(=O)N[C@@H](CCCCN)C(=O)O)[C@@H](C)O)[C@@H](C)CC)[C@@H](C)O` the AUClast was 109 nM·h (immunoaffinity LC-MS/MS; healthy human subjects, plasma; subcutaneous, 5 mg once weekly, day 36 after 6 doses, steady state, geometric mean).
For `O=C(O)/C=C/c1ccc(NC(=O)C2(NC(=O)c3ccc4c(C5CCCCC5)c5n(c4c3)CCOc3ccccc3-5)CCCC2)cc1`, the clearance was 1.02 L/h/kg (rat; intravenous, 2 mg/kg).
With `CCc1cc(Nc2nc(-c3ccc(-n4cnc(C)c4)c(F)c3)cs2)c(C)cc1C` the terminal half-life was 6.4 h (human, both sexes, plasma; oral, 200 mg, day 1, multiple dose, geometric mean).
`Oc1cccc(-c2cccc(O)n2)n1.[Cl-].[Cl-].[Ru+2].c1cnc2c(c1)ccc1cccnc12.c1cnc2c(c1)ccc1cccnc12` has a logD of 1.4 (shake flask; octanol/phosphate buffer; pH 6.70).
`NCCCC(=O)OCC(=O)c1cc(F)c(O)cc1F.O=C(O)C(F)(F)F` gave a quantum yield of under 0.01 (photolysis, item: rearranged acid appearance; aqueous HEPES buffer with LiClO4; pH 8.2).
`O=C(O)C(Cc1ccccc1)N1CSC(=S)N(CCN(CCN2CN(C(Cc3ccccc3)C(=O)O)CSC2=S)CCN2CN(C(Cc3ccccc3)C(=O)O)CSC2=S)C1` (centres unmarked) has a CC50 of 105 µM (hemolysis; human erythrocytes 5% suspension; 3 h, 37 °C, 50% hemolysis).
`Cc1cnc(Nc2cc(C)c(C)c(C)c2)nc1Nc1ccc2oc(=O)[nH]c2c1` — result for “dose remaining in lung”: 23% (rat, whole lung; intratracheal, dose not given, 24 h, 100% lung deposition assumed).
For `CC(C)(O)c1ncc([S@](N)(=O)=NC(=O)Nc2c3c(cc4c2CCC4)CCC3)s1`, the AUC(0-tau) was 96.7 µg·h/mL (healthy human; oral, 100 mg once daily, day 14, spray-dried dispersion, geometric mean).
`CC[C@H](C)[C@H](NC(=O)[C@H](N)Cc1ccc(O)cc1)C(=O)N[C@H]1CSSC[C@@H](C(=O)N(C)[C@H](C(N)=O)[C@@H](C)CC)NC(=O)[C@H](CCCNC(=N)N)NC(=O)[C@H](Cc2c[nH]cn2)NC(=O)[C@H](C)NC(=O)CN(C)C(=O)[C@H](Cc2c[nH]c3ccccc23)NC(=O)[C@H](CC(=O)O)NC(=O)[C@H](CCC(N)=O)NC(=O)[C@H](Cc2cn(C)c3ccccc23)NC(=O)[C@H](C(C)C)NC1=O` gave a recovery of 99.3 ± 0.4% (UPLC-ESI-MS; cynomolgus monkey plasma; 0.36 µg/mL, 48 h, 4 °C, autosampler after SPE).
`NCCCC(=O)OCC(=O)c1ccc(O)c(F)c1F.O=C(O)C(F)(F)F`: “quantum yield of GABA release” 0.16 (photolysis at 300 nm; ammonium acetate buffered acetonitrile-water; pH 5.0, 0.01 mol/L buffer).
`CCCC1OC2CC3C4CCC5=CC(=O)C=CC5(C)C4C(O)CC3(C)C2(C(=O)COC(=O)CN(C)C)O1` (centres unmarked): “time to rapid hydrolysis” at most 6 h (diluted rat plasma; 200 µg/mL, 37 °C, 5.7-fold dilution, 2% DMSO).
